Measured values collected from several papers.
Each numbered part is a random draw from the data of one study; scales do not carry over between parts.

Study 1 — method: protein binding microarray; form: double-stranded DNA, one strand shown; medium: in vitro; tested at: not given; reference: not given; direction: higher = stronger binding
Target: Histone acetyltransferase KAT6A, winged helix 2, GST fusion (KAT6A, Homo sapiens, UniProt Q92794, residues 85-181)
Setting: 8-mer, flanks averaged, mean of 2 arrays, mostly near background
Residues (chain): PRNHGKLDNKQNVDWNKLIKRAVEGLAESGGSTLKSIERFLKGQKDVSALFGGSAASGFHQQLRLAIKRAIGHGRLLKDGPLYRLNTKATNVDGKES
Strand | E-score
TATGCGCA | -0.0366
CGCTAAGA | 0.0926
AGGCTACT | -0.0276
CATGGAAG | 0.16
GTCCTTCA | 0.0632

Study 2 — method: RNA Bind-n-Seq; form: RNA; medium: in vitro; tested at: 365 nM; reference: no-protein control; direction: higher = stronger binding
Target: RNA binding protein fox-1 homolog 2, RRM domain, GST-SBP tag (RBFOX2, Homo sapiens, UniProt O43251-10, residues 100-194)
Setting: natural RNA segment, single round, ends assumed
Constant ends, left off below: GGGAGUUCUACAGUCCGACGAUC … UGGAAUUCUCGGGUGCCAA
Residues (chain): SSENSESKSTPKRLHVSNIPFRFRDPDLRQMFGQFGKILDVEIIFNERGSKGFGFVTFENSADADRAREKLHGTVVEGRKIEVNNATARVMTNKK
Strand | RBNS enrichment (R)
ACUGCAUAAUGCUCUGGCACUGUAUUUUGAAUGACAUUAAUUUAUUAAAUAAAUUGUAUAUAAUCAGAUCUGUUGGUUUUUUGGUUUUUGUUUUUUUCUUUUGUGAUGGG | 0.899
AAAUCUAGAAGCCUUCUCAUGUUGCCUGGUCACCUACUCCAUAAAGUGUGGGCCUUGCCUGGAAAGGAUGUUAUCACUGUCCUGCUCACAGGAACAGCCCUCUUAAUCUG | 0.374
AAACACCUCCUUCUCUUACACCCUUCGAAAUGGGUACAAACUUAAUUCUUCUCAGAAACUGGAAGACAUUCCUCUGUGUUUGCCCCUUCCUGACCCAAGAGACACCCUAU | 0.473
AUUUACACAUUUGUGUUUUAUCUGAUUCUGUUCAGUUCUCAAGGAACUUUCACAAUGCUUUCCUAGGUAGGACCUGGCAGUUUGGCAGUGCCUUCAGUUUAGCAUUGCUA | 0.283
GAACUCUCCUUGCCUAGGAUGGCAACUGAUUUUGCUCUCUUUGGAAAGAUUCUAGAUAAGUCAGCAUUGUUUAAAUCCAAGUGCAGUGCAAGUCUGUGAACUGAUCUGUU | 0.29
UUUGUAAAUUCUUUCAGCACUGGUGUCCAUCUUUGUCUUUGUUUCAGUUAAGCUCAAUAGCGAAUGUGGGACCCCCUCCUCUGACCUUCCCUGGGGGAGAAACCCUCUUG | 0.231
CCCAUGGGCCCUCGGGCCUGACCAAUCCAGACGAGGCAGAGAGCAGCAGCGACUCAAGGGCCGUGUGUACAUAUGUAAAUGAGAAAUAGACAUGUCAACAAGAUACAUUC | 0.508
GCUUUGAGGUUGUUCACGAAACUAGAAAUGUCAUUCCAGCUUGAUUGUUUUAUCAUCAGCCAAGUUAAACCCCUGCUUCCUGCCUUUUACACCUAUUGCGUGAACAGAAU | 0.27

Study 3 — method: RNA Bind-n-Seq; form: RNA; medium: in vitro; tested at: not given; reference: input RNA pool; direction: higher = stronger binding
Target: RING finger protein unkempt homolog, zinc fingers 1-6, GST-SBP tag (UNK, Homo sapiens, UniProt Q9C0B0, residues 30-357)
Sequence of UniProt Q9C0B0 (30-357, looked up): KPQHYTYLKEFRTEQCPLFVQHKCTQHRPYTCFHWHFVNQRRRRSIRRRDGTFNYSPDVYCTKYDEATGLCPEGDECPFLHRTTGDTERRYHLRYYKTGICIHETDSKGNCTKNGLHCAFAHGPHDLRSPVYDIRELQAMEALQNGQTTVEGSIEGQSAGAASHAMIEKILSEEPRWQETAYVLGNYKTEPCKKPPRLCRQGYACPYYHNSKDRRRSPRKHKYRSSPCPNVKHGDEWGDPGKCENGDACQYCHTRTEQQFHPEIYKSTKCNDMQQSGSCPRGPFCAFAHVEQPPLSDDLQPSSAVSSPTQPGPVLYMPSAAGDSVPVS
Setting: RNA with constant flanks, human and mouse sites, ends assumed
Constant ends, left off below: GGGAGUUCUACAGUCCGACGAUC … CAACAGAGGAUUGAGCAUCA
Strand | bound/input enrichment [ratio]
ACAGAUGGGAAACACGGACUUAAGUGUAUGUUUCAUAUACUGACAGUGGGACAUGGUUCUAUAGAUCAAUUAUAAUAAUAAAUAUUUUAAUUUAUCAUAAUUUAUAAAAGCUUUGUUGUU | 15.7
GUAGAUGGUACCUUUCUAGUGUGGCAUGUGAAGUAUUUGGAUGAAUAUAAUCCUGGAAUAUUUAGACAAGUUCAGGUUUCUUUUUCUUCUCGGAUUCCUGUUGCAUUUCCCUCUGGUGAU | 0.424
GUUUUGCCGUGUUCUGUUCAAGAGUAUCAGGUUGGACAGCUUUACUCUGUUGCAGAAGCGAGUAAGAAUGAAACUGGUGGUGGAGAAGGAAUCGAAGUCCUGAAGAAUGAACCUUAUGAA | 0.327
UAACUCUUAUCUUGGGUACUUGAGCAGACGGUAUAUUCCAGAGGUGGGAGGUGGGAGGGGAAGGGAGAAAUCCAAAACAAAGUGUUCUUGCUCUGACAGAAUAUUAAUCUUGUACGCUUG | 0.116
GGGUCCUUUGCACUUCAGUCGCUCUGGGCAGUGUGCACAUUUAGUCUUUCUGGGCAAUGGUGUUUCCGGCUAAGCUGGUUUUGUUUAAGGAAUUUUCUGUGUUGUCUGCUGGCUCUUGUG | 0.222

Mixed results
Molecule | target | assay | system | conditions | scale | measurement | value
PhoQ, residues 284 288 289 292 302 303 TLMATV | PhoP, residues 12 14 15 18 19 NHFIF (Escherichia coli, UniProt P23836) | Sort-seq, measured: YFP reporter | E. coli | PhoQ-PhoP variant library, with: 10 µM Mg2+ | reference: high Mg2+ state, higher = stronger signaling | fold induction | 1.71

Excerpt of the above (study 3):
Strand | bound/input enrichment [ratio]
UAACUCUUAUCUUGGGUACUUGAGCAGACGGUAUAUUCCAGAGGUGGGAGGUGGGAGGGGAAGGGAGAAAUCCAAAACAAAGUGUUCUUGCUCUGACAGAAUAUUAAUCUUGUACGCUUG | 0.116
GGGUCCUUUGCACUUCAGUCGCUCUGGGCAGUGUGCACAUUUAGUCUUUCUGGGCAAUGGUGUUUCCGGCUAAGCUGGUUUUGUUUAAGGAAUUUUCUGUGUUGUCUGCUGGCUCUUGUG | 0.222
